Results collected from several papers.
Numbered parts are unrelated; each lists some results of a single study.

Series 1 — method: protein binding microarray; molecule type: double-stranded DNA, one strand shown; matrix: in vitro; tested at: not given; relative to: not given; direction: higher = stronger binding
Target: Histone acetyltransferase KAT6A, winged helix 1, GST fusion (KAT6A, Homo sapiens, UniProt Q92794, residues 1-85)
Setting: 8-mer, flanks averaged, mean of 2 arrays, mostly near background
Target sequence (chain): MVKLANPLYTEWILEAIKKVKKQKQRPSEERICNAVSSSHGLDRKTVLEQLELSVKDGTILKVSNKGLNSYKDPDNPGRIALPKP
Strand | E-score
CAATCCAA | -0.141
AAGTTCCT | -0.179
GGCGTTGA | 0.137
AAATGGTA | -0.151
ACCCGTTA | 0.315
AAACCATC | 0.0359
GAGTTGGC | -0.0508
ACCCGGAC | 0.239
AAACAAAC | -0.297
CTTCGCTC | 0.153
ATGTGGGC | -0.00611
AGCCAGAC | -0.0807
GCACCTCA | -0.114
CGACAAAG | -0.0995
ATTCCTGG | -0.0933
ACTGTTAG | -0.0148
CAGTTCAG | -0.0282

Series 2 — method: EMSA with sequencing; molecule type: double-stranded DNA, one strand shown; matrix: in vitro; tested at: 10 and 20 nM; relative to: negative control set to 0; direction: higher = stronger binding
Target: Hepatocyte nuclear factor 3-alpha (Foxa1, Mus musculus, UniProt P35582, residues 1-468, full length assumed)
Setting: whole designed probe, mean of two concentrations, ends assumed
Shared flanks, not repeated: GTGAGCGGTGCCCATTGATGGGGAAC … TTTCACTGGGATCGTGGGGAC
Residues (chain): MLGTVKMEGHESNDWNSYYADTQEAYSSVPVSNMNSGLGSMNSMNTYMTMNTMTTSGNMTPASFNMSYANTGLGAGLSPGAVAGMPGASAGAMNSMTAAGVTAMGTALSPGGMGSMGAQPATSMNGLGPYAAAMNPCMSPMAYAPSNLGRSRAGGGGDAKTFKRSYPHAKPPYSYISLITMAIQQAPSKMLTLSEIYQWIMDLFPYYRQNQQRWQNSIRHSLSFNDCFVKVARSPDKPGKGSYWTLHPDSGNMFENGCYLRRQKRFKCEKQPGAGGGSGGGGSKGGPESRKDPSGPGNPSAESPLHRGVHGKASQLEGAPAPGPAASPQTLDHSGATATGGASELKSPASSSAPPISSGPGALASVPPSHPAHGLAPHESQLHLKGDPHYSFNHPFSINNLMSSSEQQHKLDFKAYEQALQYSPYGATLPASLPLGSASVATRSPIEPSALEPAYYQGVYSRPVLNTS
Strand | normalised bound fraction [ratio]
CATTTGCCTCCGTCCCCACCCCCAGCCTGCTGCCTCTCAGGTTCACACTTCCTGGGCTCAGAGTTTCATCCTGAGGCTGTTGGCTCAGCCAGAGCAAACAGAGACAGCACTAAAGTCAACAAAACCAGAGAGCAAGCAGCGCAGGTGACGTGGAAAAGAAAACTTGGAAGCCACAACAAAGGCATGTGGGCTG | 0.437
TTTATCACAGGACAATGAATATATACCTCAAAATAAAAGATGTAGAATACTGAAATTACATAATTTGGTTAAACAAAACAATACATGACTATGTAATCTCGGCTGAGCAGCACATACCTCCTAGTGCTTTTTTTTAAATGTCAAACAGTCATAATTTTTAATCTCCTTTCTTGAGGGTGTCAAAAAAATCTTT | 0.0522
CATGTACAAACAAAATATGGGTTGTGTAATTTCAGTAATTCCATGTACAAGTTAAACACTCTGAAAATTGCATTTAAAATGTCATTGCACAATGTAATCTTGAATGCTAACAATCTTTTTTTTTTTTCCTGAGACGGAGTCTTGCTCTATCGCCCAGGCTGGAGTGCAGCGGCACAATCTCTGCTTACTGCCA | 0.264
CTGTTGAGTGTATGTATACCCTTTCACACACATGTATAAACATATGTGGTGTGTTTGGAAAGATAAATACACTTAAATAGGTACCATCTGCATGTTTACATTACGTAGTATTAGATTGCATACTATATTTTGCTACTTGGCTTTTTAACATGTTGTGGATATCTTGTCAGTAGACTCAATGTATTTCTTTTTT | 0.469
CCCTGATTGCTATGTTCTAGAAAGTTTTAACCGAAAGTACCAGCTTTACATGTGTATGTGAATCAAACATGTAAACATCCACCTCTCTTTGTGTAAACAAGGAAAAATGGCAAAATATTTTCAGAGAATTTTTCTCTCCCATTTAAGTTTGAAGTTTCAACAAGCATATTATACTTTGAGAGAGAAAAGCAAA | 0.419
TGCTGGACCCCGGGCATAGGGAGCCCTTGCTGCTTCTCCACCCACCAGTGCTGAGCTCCGGGGGTGTTTGCCTTGCAGGTCCAAGCTGTGAATGTAAACACTGCAATTCCTCTGAAAACTGGCTGGAACCTCCTCCAGGGAGGAAGGGTTGCTCATGGGCAGGGCAGGCTCCCAAACATCATACACAGCAACC | 0.299

Series 3 — method: RNA Bind-n-Seq; molecule type: RNA; matrix: in vitro; tested at: 365 nM; relative to: no-protein control; direction: higher = stronger binding
Target: RNA binding protein fox-1 homolog 2, RRM domain, GST-SBP tag (RBFOX2, Homo sapiens, UniProt O43251-10, residues 100-194)
Setting: natural RNA segment, single round, ends assumed
Shared flanks, not repeated: GGGAGUUCUACAGUCCGACGAUC … UGGAAUUCUCGGGUGCCAA
Residues (chain): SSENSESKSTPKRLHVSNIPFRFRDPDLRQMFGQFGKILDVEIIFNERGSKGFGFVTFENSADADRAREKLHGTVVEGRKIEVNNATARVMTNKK
Strand | RBNS enrichment (R)
UCCCCCCACUUACAUAAGUAAACCCAACAUAAGGAGGACCAUUCCUUUUCUUUCAUUCAGAUGACCUUUUUCUGAAUCUGGGCACUGAAGGGAUGCAUAAAAUAAUGUUA | 0.329
GACGCUCAGAGAGCCCUGCCUCAGCGGCGUCAACGUGAUUAGUUUGCCUAAUUCAUAUUUUCACUUCCAAGUUUAUCAGAGGCGAAUGCAUAAACUAAAGGGUCAUUUGU | 0.482
GUACAGGAGAUCCCUUCUCACCCUCCAGCUCUGCAAACCGUGUCUCAUGUUUCACAGCGUUCCUGUUUUUUCUCUCCCGCCACCCCCACCGGCAUUUCCUUCUUCCACCA | 0.563
GGACUCAGAAAUGUGAGGGGGGCGGGGGCCUGGCGGGAGGCCUGGCCCCUUCCUCGUCCUUUCCUUUUGCCUUUGAGACCAAACCAAGUGCUUCCAAAUUCUUUUGGUGC | 0.274
CUAAUCAUUCCACAUUUAUUGAGCUCCACCUGUGUGUAUGUGUACCCAAGCACACAUGUGUGAAGGGCUAUAGCCAAAGUAUUUUUACUAGCCUGUAUGAAAUCACUAGU | 0.886
ACAAAAACCCUAAAUAAAUAAAAGAAGUAAAAAAAAACCACACACACACAAGGAGCUGGAGAGAUGGCUCAGUGGUUACGAGCACUGACUGCUCUUCUAGAGAUCCUGAG | 0.746
GUUGCCAAACAACUCCCUGAGGCCUCUCCGCACCACCUCAGCGGGCAGGAGGUCCCACCAUGUGGACAGACAUAGCCCAAGGAGGCACCACAGGUCUAUGUGUGCUGGGG | 0.393
ACAAAAUUUGAAGAUAUUAUGUAGUGGUCAAGGACCACUAAUAUUUGGGGAGUGUGUUUUGUCUGUUCUUCAAUGAAGGAUCAAUCCAGUGUUCUUCAUCAAUGUUAGUU | 0.426
UUUCUUGUUUUAACAGCCUUGAGAAAUGUUUGGUUUUGGCCAGCAGAAUUCUUGUCUACUUUUUUCUUUCCCAAAAAGUGUUUUUUAAUUUCUCUACCAAAGAAAAAAUG | 0.96
UAUGUUGAAUGCUAUUAAAUGUUUUCCUGUGUCAAAGUAAAAUAUUGUUAAUAAACCUAACAAUGACCCUGAUAGUACAGGUUAAGUGAGAGAACUAUAUGAAUUCUAAC | 0.728
AGAGGAGGCCUGGGGGCCUGGACGAAGAGGCCUAGGACCUGAAGAGACUCCAGCGAGUCUCGGGAAGCCCAGGGGACCUGUCACCAUCUGGGCACUUCCCAGGCUCAAUG | 0.526
CAACAUGUAAAUAAUCUUUUAAGAGCCAGUUCUGAUGCUUUACAUUAUUGCUACUUGAUUUUGUUAUGCAAGUUAGAUUUCAGAAGAAUAGAUUUUAAAACACUUAACCA | 0.422

Series 4 — method: RNA Bind-n-Seq; molecule type: RNA; matrix: in vitro; tested at: not given; setting: RNA with constant flanks, ends assumed; relative to: input RNA pool; direction: higher = stronger binding
Target: RING finger protein unkempt homolog, zinc fingers 1-6, GST-SBP tag (UNK, Homo sapiens, UniProt Q9C0B0, residues 30-357)
Chain of UniProt Q9C0B0 (30-357, looked up): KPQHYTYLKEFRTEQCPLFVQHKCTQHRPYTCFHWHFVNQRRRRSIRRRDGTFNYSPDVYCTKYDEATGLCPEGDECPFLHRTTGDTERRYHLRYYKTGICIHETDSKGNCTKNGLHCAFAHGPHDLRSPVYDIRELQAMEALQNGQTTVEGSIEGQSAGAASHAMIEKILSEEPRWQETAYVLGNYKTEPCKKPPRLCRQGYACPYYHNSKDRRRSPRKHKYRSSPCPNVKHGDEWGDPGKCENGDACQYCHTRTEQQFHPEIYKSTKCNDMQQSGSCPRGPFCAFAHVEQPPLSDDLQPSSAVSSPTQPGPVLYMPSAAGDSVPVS
Shared flanks, not repeated: GGGAGUUCUACAGUCCGACGAUC … CAACAGAGGAUUGAGCAUCA
Strand | bound/input enrichment
AAUGGUGAAUCAGGAAAGGAUGUGGAUGAUGACAAAGAUGCAAAUAAGUCUGAGAUCAGCUCCGUGUUUGAAAUUGCUCUGAAGCGAAAUAUGCCUGUCAGUUUUGAGGUUAUUAAAGAA | 0.143 ratio
AGUUUAUUAUUGUUGCUUAAUAAGAAAACACGGUUCCACUUGGGCUAUUUUAAGGGCAGGCCGCUAUCACUCUGUCUUGUGUUAUGAUUAAUAUUAUCUGCAUAAGCAUAGAAUAAUACU | 0.373 ratio
GAGCAAAAGUUUAAAAUUUUGUGAAUUUAUUAAAGCUCCGUUUGUUGCUUUUUUCUGUUCCCGUUUAUACUUUUGUAUCAUAUUUUAGGAAAUUUUGCACUGGGUAUUUGAUGGCUCCUG | 4.74 ratio
AACCACAACGACUGGAUUAAGCAGUAUGAAACACUAGCCGAAAUGGUAGUUCCAAGGUCCCGCAAUGUUCUUUCAGAGGACCAAGACAGUUACCUGUGUAAUGUCACCUUGUUUAGGAAG | 0.186 ratio
CCUGGGAACAGCACCCAGUACAACAUCCUGGAAGGGUUGGAAAAGCUCAAACAUCCCGACUUUCUGAAGCAGCCACUGGCCACCCAAAAGGAUCUCACUGGCCAGGUGCCCACUCCUGUG | 0.198 ratio
UCCGGUUUGGUGAUCAAUACAGCUGGAGAAAUGGCUGGAGCUUUUGUGGCAGUGUUUUUACCCGCAAUGUUCUAUGAAGGACUCAAGAUAGCCCGAGAGAGCCUGCUGCGUAAGUCACAA | 0.114 ratio
GUACGAGGCAUAUUAAUGAAUGAGGAGGUCCUAGGAAACCAGAUUCACUUGCAUGUGACAACCCGGGAAUAUGGUGCCCGGGUCUCCAACCUACACAUGUACUCAGCUGUUUGUGCUGAC | 0.276 ratio
UACCCGCCAUAUAAUCAGUAUCCCAAUGGGUCAGCCAACGGUUUUGGUGCAGUUAGAAACUUCCGCCCUACUGACUAUUACCAUUCAGAAAUUCCAAACACAAGACCACAUGAAAUUCUG | 0.319 ratio
ACUCGUUUGCUUUUUUUCUUUUUUUAACUAAGAGCUGUGUUCCUGGCUAGAGAAUUUCAUUACCGGGAGCUGAGCCCCGGCCCAUAUGGGUGUACUGCUCGGAGACUGGGAGCAAGGGGU | 0.558 ratio
GCUUCUGGAUCUAGAUCCAGGAAGUCACAUUCUAAGCAAAUGCCUCGGCCUGUUAAAGGGUUCCGUUGCUUCAGUUCAUGAAUGAUCCUAUCCCAGCCUACUCCUCUGUGGCCUUGACGC | 0.169 ratio
CUCCAGACACAAGUAGCUGAAAUGUCCCGAGUGAUACGUGAUCUGCAGUCCAGGAGCUGUUUCCGAUUUCAUCAUUCUAGGCCAAGUGAGAACUCCUCAGUUCCUUGGGACAUCUCCACC | 0.269 ratio

Excerpt of the above (series 3):
Strand | RBNS enrichment (R)
UCCCCCCACUUACAUAAGUAAACCCAACAUAAGGAGGACCAUUCCUUUUCUUUCAUUCAGAUGACCUUUUUCUGAAUCUGGGCACUGAAGGGAUGCAUAAAAUAAUGUUA | 0.329
GACGCUCAGAGAGCCCUGCCUCAGCGGCGUCAACGUGAUUAGUUUGCCUAAUUCAUAUUUUCACUUCCAAGUUUAUCAGAGGCGAAUGCAUAAACUAAAGGGUCAUUUGU | 0.482
GUACAGGAGAUCCCUUCUCACCCUCCAGCUCUGCAAACCGUGUCUCAUGUUUCACAGCGUUCCUGUUUUUUCUCUCCCGCCACCCCCACCGGCAUUUCCUUCUUCCACCA | 0.563
GGACUCAGAAAUGUGAGGGGGGCGGGGGCCUGGCGGGAGGCCUGGCCCCUUCCUCGUCCUUUCCUUUUGCCUUUGAGACCAAACCAAGUGCUUCCAAAUUCUUUUGGUGC | 0.274
CUAAUCAUUCCACAUUUAUUGAGCUCCACCUGUGUGUAUGUGUACCCAAGCACACAUGUGUGAAGGGCUAUAGCCAAAGUAUUUUUACUAGCCUGUAUGAAAUCACUAGU | 0.886
ACAAAAACCCUAAAUAAAUAAAAGAAGUAAAAAAAAACCACACACACACAAGGAGCUGGAGAGAUGGCUCAGUGGUUACGAGCACUGACUGCUCUUCUAGAGAUCCUGAG | 0.746
GUUGCCAAACAACUCCCUGAGGCCUCUCCGCACCACCUCAGCGGGCAGGAGGUCCCACCAUGUGGACAGACAUAGCCCAAGGAGGCACCACAGGUCUAUGUGUGCUGGGG | 0.393
